Measured values of several laboratories.
Each line is one published result; not all experiments were run side by side. Values joined by “and” are separate records of one study, mostly repeats; a detail may differ. Numbers after ± are the reported error. Where no end group is shown, it is not given here. [ ]: non-standard residue; d: D form.
HLA class I histocompatibility antigen, A alpha chain allele A*02:01: HLA class I histocompatibility antigen, A alpha chain, allele A*02:01 (Homo sapiens, UniProt P04439)
HLA class I histocompatibility antigen, A alpha chain allele A*24:02: HLA class I histocompatibility antigen, A alpha chain, allele A*24:02 (Homo sapiens, UniProt P04439)
Protein farnesyltransferase: Protein farnesyltransferase (Rattus norvegicus, UniProt Q02293+Q04631)
SCRIB PDZ3 domain: Protein scribble homolog, PDZ3 domain (SCRIB, Homo sapiens, UniProt Q14160)
HLA class I histocompatibility antigen, A alpha chain allele A*01:01: HLA class I histocompatibility antigen, A alpha chain, allele A*01:01 (Homo sapiens, UniProt P04439)

milbemycin oxime — fraction bound (CDR1 (Candida albicans, UniProt Q5ANA3); binding, microscale thermophoresis; 306 pM): 1.03%
TSFFSGLSPIEEEAD — time to equilibrium (Serine/threonine-protein phosphatase 2A 56 kDa regulatory subunit alpha isoform (Homo sapiens, UniProt Q15172); binding kinetics; peptide; 2 µM, 4 °C): ~24 h
GSGAGHETIV — binding intensity (human MAGI1-3/6 PDZ construct (MBP fusion); automated holdup; peptide, purified PDZ protein; concentration not given, unit not given; reference: biotin control resin, higher = stronger binding): 0.311
SLPDRILDA — relative affinity (HLA class I histocompatibility antigen, A alpha chain allele A*02:01; HLA-A2 stabilization, peptide titration; peptide, T2; 20 h, 37 °C, added: human β2-microglobulin 100 ng/mL; reference: HIVpol reference peptide, lower is stronger): 9.36
STVQLIMQLM — binding score (HLA class I histocompatibility antigen, A alpha chain allele A*24:02; conformational ELISA; peptide; concentration not given; reference: positive control peptide, direction not given): 20.3%
RFIPKPDGL — binding (human HLA-A24 (A*2401); peptide-MHC binding, iTopia initial binding; peptide, plate-bound HLA heavy chain; 11 µM, 18 h, 21 °C; reference: allele-matched positive control peptide): 73 ,2
GSGAGKETYY — binding intensity (human MAGI1-3/6 PDZ construct (MBP fusion); automated holdup; peptide, crude extract; concentration not given, uncorrected, unit not given; reference: biotin control resin, higher = stronger binding): -0.0493
Et-DADMe-ImmA — forward isomerization rate k3 (Aminodeoxyfutalosine nucleosidase (Helicobacter pylori, UniProt Q9ZMY2); spectrophotometric coupled): 0.26 ± 0.15 min⁻¹
CTIL — kcat (Protein farnesyltransferase; peptide farnesylation, substrate; peptide; pH 7.5, 25 °C, Protein farnesyltransferase 50 to 100 nM, added: C15-Alk 4 µM): 0.13 ± 0.01 s⁻¹
6-carboxyfluorescein — uptake (SLCO2A1 (Homo sapiens, UniProt Q92959, C448A); compound uptake, substrate; HEK293F expressing SLCO2A1 C448A; 50 µM; reference: wild type): 48.8% and 40.1% and 51.8%
[Aib][Aib]IA (Aib = CC(C)(N)C(=O)O) — ThT fluorescence (APP (Homo sapiens, UniProt P05067); aggregation, ThT fluorescence; 24 h, 37 °C, Aβ to peptide ratio 1:1, added: Aβ1–42 2 µM; reference: Aβ1–42 alone, lower is stronger inhibition): 82.5%
NIGSQGSTDY — Kd (SCRIB PDZ3 domain; binding, fluorescence polarization; peptide, solution; Scribble PDZ3 domain): 100 µM
QLMPFGSLLDY — binding score (HLA class I histocompatibility antigen, A alpha chain allele A*01:01; conformational ELISA; peptide; concentration not given; reference: positive control peptide, direction not given): 89.2%
PELLSAIEKLL — Kd (SCRIB PDZ3 domain; binding, fluorescence polarization; peptide, solution; Scribble PDZ3 domain): 100 µM
EESDDLYIPAFLRKQLD — degradation (Catenin beta-1 (CTNNB1, Homo sapiens, UniProt P35222); immunoblot; peptide, DLD-1, cytosolic fraction; reference: non-transfected cells): > 50%
LMPFGSLL — binding score (HLA class I histocompatibility antigen, A alpha chain allele A*02:01; conformational ELISA; peptide; concentration not given; reference: positive control peptide, direction not given): 10.2%
RMARDPQRF — binding (human HLA-A24 (A*2401); peptide-MHC binding, iTopia initial binding; peptide, plate-bound HLA heavy chain; 11 µM, 18 h, 21 °C; reference: allele-matched positive control peptide): 112%
TVQLIMQLM — binding score (HLA class I histocompatibility antigen, A alpha chain allele A*24:02; conformational ELISA; peptide; concentration not given; reference: positive control peptide, direction not given): 22.7%
BzATP — normalized current (P2X purinoceptor 7 (P2rx7, Rattus norvegicus, UniProt Q64663, I214A/Q143A/R125A); ion current, agonist, two-electrode voltage clamp; Xenopus oocytes; 900 µM): 0.883 and 0.864
alkynyl-farnesyl pyrophosphate — Vmax (Protein farnesyltransferase; peptide prenylation, substrate, fluorescence anisotropy; added: FAM-RHEB peptide): 3.1 fmol/min
DRVKGKCTLM — Kd (SCRIB PDZ3 domain; binding, fluorescence polarization; peptide, solution; Scribble PDZ3 domain): 100 µM
LMDLSTTPL — relative affinity (HLA class I histocompatibility antigen, A alpha chain allele A*02:01; HLA-A2 stabilization, peptide titration; peptide, T2; 20 h, 37 °C, added: human β2-microglobulin 100 ng/mL; reference: HIVpol reference peptide, lower is stronger): 0.947
cryptolepine — inhibition (CDK7 (Homo sapiens, UniProt P50613); enzyme activity, inhibitor, ADP-Glo kinase; 10 µM): 10.9 ± 7.8%
QLMPFGSLL — binding score (HLA class I histocompatibility antigen, A alpha chain allele A*02:01; conformational ELISA; peptide; concentration not given; reference: positive control peptide, direction not given): 88.8%
11-deoxycorticosterone — rate constant k2 (CYP11B2 (human); substrate binding, stopped-flow global kinetic fitting; purified enzyme; 3-state induced fit model, added: equimolar adrenodoxin): 0.00487 ± 0.0867 s⁻¹
methyl-β-cyclodextrin — glycine uptake rate (SLC6A9 (Homo sapiens, UniProt P48067); transport activity, [3H]glycine uptake; 3.5 mg/mL, 1 min, added: glycine 600 µM; higher = more transport): 46 a.u. and 46.1 a.u. and 65.3 a.u. and 65.2 a.u. and 45 a.u.
YTNPEFVINV — Kd (SCRIB PDZ3 domain; binding, fluorescence polarization; peptide, solution; Scribble PDZ3 domain): 100 µM
LIMQLMPF — binding score (HLA class I histocompatibility antigen, A alpha chain allele A*01:01; conformational ELISA; peptide; concentration not given; reference: positive control peptide, direction not given): 0.6%
D-AP5 — inhibition (Glutamate NMDA receptor; GRIN1/GRIN2B (GRIN1/GRIN2B, Homo sapiens, UniProt Q05586+Q13224); ion current, antagonist, whole-cell patch clamp; HEK293T cells; concentration not given): 86.59 ± 0.01%
ITDFGRAKLLG — binding score (HLA class I histocompatibility antigen, A alpha chain allele A*01:01; conformational ELISA; peptide; concentration not given; reference: positive control peptide, direction not given): 0.1%
FMLGEFLKL — relative affinity (HLA class I histocompatibility antigen, A alpha chain allele A*02:01; HLA-A2 stabilization, peptide titration; peptide, T2; 20 h, 37 °C, added: human β2-microglobulin 100 ng/mL; reference: HIVpol reference peptide, lower is stronger): 1.5
ITDFGRAKLL — binding score (HLA class I histocompatibility antigen, A alpha chain allele A*24:02; conformational ELISA; peptide; concentration not given; reference: positive control peptide, direction not given): 6.4%
SIAATLENDLARLENENARLEKDIANLERDLAKLEREEAYF — Tm (Transcription factor Jun (Homo sapiens, UniProt P05412); heterodimer thermal denaturation, CD; peptide, 1 M GuHCl; 4 µM total peptide, pH 7.4): 24.2 °C

Some of these lines once more:
SLPDRILDA — relative affinity (HLA class I histocompatibility antigen, A alpha chain allele A*02:01; HLA-A2 stabilization, peptide titration; peptide, T2; 20 h, 37 °C, added: human β2-microglobulin 100 ng/mL; reference: HIVpol reference peptide, lower is stronger): 9.36
[Aib][Aib]IA (Aib = CC(C)(N)C(=O)O) — ThT fluorescence (APP (Homo sapiens, UniProt P05067); aggregation, ThT fluorescence; 24 h, 37 °C, Aβ to peptide ratio 1:1, added: Aβ1–42 2 µM; reference: Aβ1–42 alone, lower is stronger inhibition): 82.5%
NIGSQGSTDY — Kd (SCRIB PDZ3 domain; binding, fluorescence polarization; peptide, solution; Scribble PDZ3 domain): 100 µM
